Published values from different studies.
Each line is one published result; not all experiments were run side by side. ± gives the spread as reported.

Structure (SMILES)	tested on	assay	system	setting	scale	endpoint	result
O=[N+]([O-])c1ccc(N2CCN(CCC(O)c3ccc(F)cc3)CC2)c(C(F)(F)F)c1 (centres unmarked)	Salmonella typhimurium	genotoxicity, SOS/umu test	TA1535/pSK1002	0.063 mg/mL, 4 h, without S9, full range		induction factor	0.9
CN(C)CC/C=C1/c2ccccc2Sc2ccc(Cl)cc21	African green monkey cells			5 days		CC50	13.8 µM
CC(=O)N1CCC(C(=O)N2CCN3C(=O)c4cc(-c5ccccc5)ccc4NC(=O)C3C2)CC1 (centres unmarked)	Salmonella typhimurium		TA1537	50 µg/plate, with: rat liver S9	baseline: vehicle	fold increase in revertants	1.3
CNC(=O)c1c(N(C)N=O)ncn1C	Salmonella typhimurium	mutagenicity, Ames plate incorporation	TA1535	500 µg/plate, without S9, methanol		revertant colonies per plate	16 ± 3
NC(CO)(CO)CCc1ccc(Sc2cccc(OCc3ccccc3)c2)cc1Cl	African green monkey cells			5 days		CC50	3.06 µM
[Cl-].[Cl-].[Pt+2].[Ru+2].c1ccc(-c2nccnc2-c2ccccn2)nc1.c1cnc2c(c1)ccc1cccnc12.c1cnc2c(c1)ccc1cccnc12	Danio rerio		embryos	30 µM, 48 h		hatching rate	23 ± 2.8%
Cc1cc(C(=O)NC(C)(C)COc2cccc3c2C(N)=NS(=O)(=O)N3)cc(C)n1	Salmonella typhimurium	Ames test, confirmatory	TA1537	100 µg/plate, with: rat liver S9	baseline: solvent control	revertant ratio	0.9
[Cl-].[Cl-].[Pt+2].[Ru+2].c1ccc(-c2nc3ccccc3nc2-c2ccccn2)nc1.c1cnc2c(c1)ccc1cccnc12.c1cnc2c(c1)ccc1cccnc12	Danio rerio		embryos	45 µM, 24 h		survival rate	83.3 ± 1.7%
O=[N+]([O-])c1ccc(N2CCC(NCCC(O)c3ccc(F)c4ccccc34)CC2)c(C(F)(F)F)c1 (centres unmarked)	Salmonella typhimurium	genotoxicity, SOS/umu test	TA1535/pSK1002	0.031 mg/mL, 4 h, with S9, full range		induction factor	0.87
[Cl-].[Cl-].[Pt+2].[Ru+2].c1ccc(-c2nc3cc4ccccc4cc3nc2-c2ccccn2)nc1.c1cnc2c(c1)ccc1cccnc12.c1cnc2c(c1)ccc1cccnc12	Danio rerio		embryos	30 µM, 24 h		survival rate	90 ± 3.9%
COc1cccc(-c2n[nH]c(SCc3ccccn3)n2)c1OC	Escherichia coli	Ames test, preincubation	WP2 uvrA	1.0 mg/plate, with rat liver S9		revertant colonies per plate	16

For quick reference, copied from above:
Structure (SMILES)	tested on	assay	system	setting	scale	endpoint	result
O=[N+]([O-])c1ccc(N2CCC(NCCC(O)c3ccc(F)c4ccccc34)CC2)c(C(F)(F)F)c1 (centres unmarked)	Salmonella typhimurium	genotoxicity, SOS/umu test	TA1535/pSK1002	0.031 mg/mL, 4 h, with S9, full range		induction factor	0.87
